Results of several laboratories.
Lines come from different studies, so protocols differ.

Structure (SMILES) | matrix | concentration | pH | temperature | notes | quantity | result
O=c1c(Br)c2oc3c(CN(Cc4ccccn4)Cc4cnccn4)c(O)ccc3nc-2c2ccccc12 | aqueous buffer | – | pH 7.0 | – | metal-free | excitation maximum | 514 nm
CC1=CC(C)=[N+]2C1=C(CCCC(=O)NCCCCCC(=O)NCCCCCC(=O)NCCCC[C@H](NC(=O)N[C@@H](CCC(=O)O)C(=O)O)C(=O)O)c1c(C)cc(C)n1[B-]2(F)F | acetonitrile/water | – | – | – | – | excitation wavelength | 496 nm
CC1=CC(C)=[N+]2C1=C(c1ccc(C[P+](c3ccccc3)(c3ccccc3)C3CCCCC3)cc1)c1c(C)cc(C)n1[B-]2(F)F | PBS | 10 µM | pH 7.4 | 298 K | – | excitation maximum | 497 nm
O=c1[nH]c(=O)n(C2OC(CO)C(O)C2O)cc1-n1nnc2c1CCC1C(CO)C1CC2 (mixture of isomers) | methanol | – | – | – | – | excitation maximum | 276 nm
CC1=CC(C)=[N+]2C1=C(c1ccc(C[P+](C3CCCCC3)(C3CCCCC3)C3CCCCC3)cc1)c1c(C)cc(C)n1[B-]2(F)F | PBS | 10 µM | pH 7.4 | 298 K | – | excitation maximum | 497 nm
NCCC(=O)N1Cc2ccccc2-c2c(nnn2-c2nc(N)c3ncn(C4OC(CO)C(O)C4O)c3n2)-c2ccccc21 (mixture of isomers) | methanol | – | – | – | – | excitation maximum | 295 nm
O=c1c(Br)c2oc3c(CN(Cc4ccccn4)Cc4cnccn4)c(O)c(Cl)cc3nc-2c2ccccc12 | aqueous buffer | – | pH 7.0 | – | metal-free | excitation maximum | 550 nm
COCCOCCOc1ccc([P+](Cc2ccc(C3=C4C(C)=CC(C)=[N+]4[B-](F)(F)n4c(C)cc(C)c43)cc2)(c2ccc(OCCOCCOC)cc2)c2ccc(OCCOCCOC)cc2)cc1 | PBS | 10 µM | pH 7.4 | 298 K | – | excitation maximum | 497 nm
Nc1nc(-n2nnc3c2CCC2C(CO)C2CC3)nc2c1ncn2C1OC(CO)C(O)C1O (mixture of isomers) | methanol | – | – | – | – | excitation maximum | 270 nm
CC1=CC(C)=[N+]2C1=C(CCCC(=O)NCC1CCC(C(=O)NC(Cc3ccc4ccccc4c3)C(=O)NCCCCC(NC(=O)NC(CCC(=O)O)C(=O)O)C(=O)O)CC1)c1c(C)cc(C)n1[B-]2(F)F (stereo not drawn) | acetonitrile/water | – | – | – | – | excitation wavelength | 495 nm
Cc1nc(N(C)C)ccc1N | phosphate buffer with BSA | – | pH 8 | 37 °C | 1% DMSO | excitation maximum | 328 nm
NCCC(=O)N1Cc2ccccc2-c2c(nnn2-c2cn(C3OC(CO)C(O)C3O)c(=O)[nH]c2=O)-c2ccccc21 (mixture of isomers) | methanol | – | – | – | – | excitation maximum | 312 nm

Some of these lines once more:
Structure (SMILES) | matrix | concentration | pH | temperature | notes | quantity | result
CC1=CC(C)=[N+]2C1=C(c1ccc(C[P+](c3ccccc3)(c3ccccc3)C3CCCCC3)cc1)c1c(C)cc(C)n1[B-]2(F)F | PBS | 10 µM | pH 7.4 | 298 K | – | excitation maximum | 497 nm
